Measurements from different studies.
Parts stem from different laboratories: compare values within a part only. Several values in a cell are separate wells, animals, samples, runs or records.
Chain of UniProt Q96NX5 (whole entry, looked up): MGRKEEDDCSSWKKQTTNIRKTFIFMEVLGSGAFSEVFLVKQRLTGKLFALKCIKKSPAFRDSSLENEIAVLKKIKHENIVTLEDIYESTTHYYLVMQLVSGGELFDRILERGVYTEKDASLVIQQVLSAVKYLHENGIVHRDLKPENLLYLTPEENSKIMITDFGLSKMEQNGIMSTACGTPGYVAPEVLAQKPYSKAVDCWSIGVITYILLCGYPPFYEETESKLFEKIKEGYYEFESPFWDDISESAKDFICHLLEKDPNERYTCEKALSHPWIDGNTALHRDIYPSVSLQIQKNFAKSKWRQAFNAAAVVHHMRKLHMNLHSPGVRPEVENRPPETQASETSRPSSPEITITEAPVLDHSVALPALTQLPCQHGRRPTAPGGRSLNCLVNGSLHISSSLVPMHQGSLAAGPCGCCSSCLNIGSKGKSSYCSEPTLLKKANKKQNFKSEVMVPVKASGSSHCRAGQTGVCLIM
Chain of UniProt Q8TDC3 (whole entry, looked up): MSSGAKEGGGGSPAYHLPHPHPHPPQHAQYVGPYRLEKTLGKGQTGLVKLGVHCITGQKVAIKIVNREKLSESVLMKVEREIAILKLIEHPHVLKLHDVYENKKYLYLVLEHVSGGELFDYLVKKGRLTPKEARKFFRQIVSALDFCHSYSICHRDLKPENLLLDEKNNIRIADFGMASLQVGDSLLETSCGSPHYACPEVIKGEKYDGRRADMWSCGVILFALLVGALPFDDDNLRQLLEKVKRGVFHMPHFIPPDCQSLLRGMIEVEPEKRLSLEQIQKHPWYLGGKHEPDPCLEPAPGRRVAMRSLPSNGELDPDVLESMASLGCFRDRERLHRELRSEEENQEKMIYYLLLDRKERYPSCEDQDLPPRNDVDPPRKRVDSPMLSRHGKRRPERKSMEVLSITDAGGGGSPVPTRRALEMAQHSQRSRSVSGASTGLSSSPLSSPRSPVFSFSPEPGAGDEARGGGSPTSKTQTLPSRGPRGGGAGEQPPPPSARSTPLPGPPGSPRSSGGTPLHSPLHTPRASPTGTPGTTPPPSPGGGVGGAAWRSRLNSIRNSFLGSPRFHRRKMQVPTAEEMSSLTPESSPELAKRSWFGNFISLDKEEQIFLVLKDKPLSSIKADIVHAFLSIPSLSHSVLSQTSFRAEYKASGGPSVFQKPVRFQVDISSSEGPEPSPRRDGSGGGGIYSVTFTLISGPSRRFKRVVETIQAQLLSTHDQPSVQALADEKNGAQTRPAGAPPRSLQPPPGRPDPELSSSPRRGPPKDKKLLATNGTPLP
Chain of UniProt O14965 (whole entry, looked up): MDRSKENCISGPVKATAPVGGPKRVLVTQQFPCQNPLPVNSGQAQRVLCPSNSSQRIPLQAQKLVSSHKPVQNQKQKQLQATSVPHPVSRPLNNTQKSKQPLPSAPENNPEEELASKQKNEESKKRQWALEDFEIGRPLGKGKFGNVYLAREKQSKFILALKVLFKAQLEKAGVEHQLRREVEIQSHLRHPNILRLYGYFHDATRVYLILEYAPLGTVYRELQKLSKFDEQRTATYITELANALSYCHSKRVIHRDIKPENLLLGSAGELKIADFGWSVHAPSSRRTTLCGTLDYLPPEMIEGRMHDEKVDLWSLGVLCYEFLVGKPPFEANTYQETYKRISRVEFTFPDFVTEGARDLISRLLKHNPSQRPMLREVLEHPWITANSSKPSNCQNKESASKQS

Block 1 — technique: competition with immobilised ligand; concentration: 1 µM; endpoint: remaining binding
SMILES: CN(C)C(=O)Cn1cc(-c2nc(C3(c4ccc(-c5cnc(N)nc5)cc4)CC3)no2)cn1
Rhodopsin kinase GRK1 (GRK1, Homo sapiens, UniProt Q15835); cell-free assay: 74%
Protein kinase C theta type (PRKCQ, Homo sapiens, UniProt Q04759); cell-free assay: 89%
Activin receptor type-1-like (ACVRL1, Homo sapiens, UniProt P37023); binding: 86%
Eukaryotic translation initiation factor 2-alpha kinase 1 (EIF2AK1, Homo sapiens, UniProt Q9BQI3); cell-free assay: 88%
Serine/threonine-protein kinase PLK4 (PLK4, Homo sapiens, UniProt O00444); cell-free assay: 100%
Cyclin-dependent kinase-like 3 (CDKL3, Homo sapiens, UniProt Q8IVW4); cell-free assay: 80%
Mitogen-activated protein kinase 8 (MAPK8, Homo sapiens, UniProt P45983); cell-free assay: 78%
Mitogen-activated protein kinase kinase kinase 12 (MAP3K12, Homo sapiens, UniProt Q12852); cell-free assay: 100%
Mitogen-activated protein kinase 1 (MAPK1, Homo sapiens, UniProt P28482); cell-free assay: 81%
Tyrosine-protein kinase FRK (FRK, Homo sapiens, UniProt P42685); cell-free assay: 100%
Dual specificity tyrosine-phosphorylation-regulated kinase 2 (DYRK2, Homo sapiens, UniProt Q92630); cell-free assay: 81%
Phosphatidylinositol 3-kinase C2 domain-containing subunit gamma (PIK3C2G, Homo sapiens, UniProt O75747); cell-free assay: 76%
Phosphatidylinositol 4,5-bisphosphate 3-kinase catalytic subunit alpha isoform (PIK3CA, Homo sapiens, UniProt P42336, I800L); cell-free assay: 91%
Ephrin type-A receptor 4 (EPHA4, Homo sapiens, UniProt P54764); cell-free assay: 100%
STE20-like serine/threonine-protein kinase (SLK, Homo sapiens, UniProt Q9H2G2); cell-free assay: 77%
Mast/stem cell growth factor receptor Kit (KIT, Homo sapiens, UniProt P10721, V559D); cell-free assay: 100%
Serine/threonine-protein kinase tousled-like 2 (TLK2, Homo sapiens, UniProt Q86UE8); cell-free assay: 100%

Block 2 — observed: enzyme activity; mode: inhibitor; concentration: 0.5 µM; reference: control; endpoint: remaining activity
Structure (SMILES): COc1cc(Nc2c(C#N)cnc3cc(OCCCN4CCN(C)CC4)c(OC)cc23)c(Cl)cc1Cl
Serine/threonine-protein kinase D1 (PRKD1, Homo sapiens, UniProt Q15139): 43.7%
Mitogen-activated protein kinase kinase kinase 8 (MAP3K8, Homo sapiens, UniProt P41279): 101%
Protein-tyrosine kinase 2-beta (PTK2B, Homo sapiens, UniProt Q14289): 32.6%
Homeodomain-interacting protein kinase 3 (HIPK3, Homo sapiens, UniProt Q9H422): 93.5%
Proto-oncogene tyrosine-protein kinase ROS (ROS1, Homo sapiens, UniProt P08922): 95.4%
Mitogen-activated protein kinase kinase kinase 2 (MAP3K2, Homo sapiens, UniProt Q9Y2U5): 23.5%
Serine/threonine-protein kinase BRSK1 (BRSK1, Homo sapiens, UniProt Q8TDC3): 97.5%
Dual specificity tyrosine-phosphorylation-regulated kinase 4 (DYRK4, Homo sapiens, UniProt Q9NR20): 97.9%
Serine/threonine-protein kinase N2 (PKN2, Homo sapiens, UniProt Q16513): 105%
Calcium/calmodulin-dependent protein kinase type 1G (CAMK1G, Homo sapiens, UniProt Q96NX5): 82.7%
Aurora kinase A (AURKA, Homo sapiens, UniProt O14965): 86%
Proto-oncogene tyrosine-protein kinase receptor Ret (RET, Homo sapiens, UniProt P07949): 18.9%
Casein kinase II subunit alpha' (CSNK2A2, Homo sapiens, UniProt P19784): 108%
G protein-coupled receptor kinase 5 (GRK5, Homo sapiens, UniProt P34947): 109%
Cyclin-dependent kinase 2, with cyclin A (CDK2, Homo sapiens, UniProt P24941): 91.1%

Block 3 — mode: inhibitor; concentration: 10 µM; reference: control; endpoint: remaining activity
Target: Diamine acetyltransferase 1 (Homo sapiens, UniProt P21673)
Residues (P21673 1-171): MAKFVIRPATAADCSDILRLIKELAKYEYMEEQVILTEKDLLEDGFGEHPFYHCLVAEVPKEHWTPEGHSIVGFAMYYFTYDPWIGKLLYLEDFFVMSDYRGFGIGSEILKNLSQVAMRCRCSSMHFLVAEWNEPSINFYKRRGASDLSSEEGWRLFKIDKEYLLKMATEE
COc1ccc(-c2coc3cc(O)ccc3c2=O)cc1: 88.5%
C=C(C)[C@@H]1CC=C(C)CC1: 87.2%
CCCCCCCCCCCCCCCCCCCCCCCCC(=O)O: 101%
CCCCCCCCCCCCCCCCCCCCCC(=O)O: 94.1%
O=C(O[C@@H]1O[C@@H]2COC(=O)c3cc(O)c(O)c(O)c3-c3c(cc(O)c(O)c3O)C(=O)O[C@H]([C@H]1O)[C@@H]2O)c1cc(O)c(O)c(O)c1: 91.8%
CC(C)(O)[C@@H]1Cc2cc3ccc(=O)oc3cc2O1: 86.5%
CCCCC/C=C/C/C=C/CCCCCCCCCC(=O)O: 97.6%
COc1ccc(C(=O)O)cc1O: 86.2%
O=C(O)c1ccc[nH]1: 90.6%
O=C(/C=C/c1ccc(O)c(O)c1)O[C@H]1[C@H](O)C[C@](O)(C(=O)O)C[C@H]1O: 102%
Cc1c[nH]c2ccccc12: 109%

Block 4 — mode: degrader; endpoint: remaining protein
Structure (SMILES): O=C1CCC(N2Cc3cc(C4CCN(Cc5ccccc5)CC4)ccc3C2=O)C(=O)N1 (stereo not drawn)
Zinc finger protein Aiolos: Zinc finger protein Aiolos (Homo sapiens, UniProt Q9UKT9)
Chain of UniProt Q9UKT9 (whole entry, looked up): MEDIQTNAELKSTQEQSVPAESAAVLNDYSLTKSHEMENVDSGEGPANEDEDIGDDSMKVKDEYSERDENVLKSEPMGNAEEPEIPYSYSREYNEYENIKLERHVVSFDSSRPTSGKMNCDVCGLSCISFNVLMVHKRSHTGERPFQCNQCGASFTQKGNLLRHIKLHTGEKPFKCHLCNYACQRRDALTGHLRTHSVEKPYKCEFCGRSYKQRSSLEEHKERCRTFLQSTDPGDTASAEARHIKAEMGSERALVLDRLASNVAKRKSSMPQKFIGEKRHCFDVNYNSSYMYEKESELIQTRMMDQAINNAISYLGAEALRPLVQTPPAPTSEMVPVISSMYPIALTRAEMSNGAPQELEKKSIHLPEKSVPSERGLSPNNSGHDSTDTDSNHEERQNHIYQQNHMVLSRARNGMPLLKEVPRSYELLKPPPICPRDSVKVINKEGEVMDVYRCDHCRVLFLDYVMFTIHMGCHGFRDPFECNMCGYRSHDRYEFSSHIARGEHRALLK
CSNK1A1: Casein kinase I isoform alpha (CSNK1A1, Homo sapiens, UniProt P48729)
Chain of UniProt P48729 (whole entry, looked up): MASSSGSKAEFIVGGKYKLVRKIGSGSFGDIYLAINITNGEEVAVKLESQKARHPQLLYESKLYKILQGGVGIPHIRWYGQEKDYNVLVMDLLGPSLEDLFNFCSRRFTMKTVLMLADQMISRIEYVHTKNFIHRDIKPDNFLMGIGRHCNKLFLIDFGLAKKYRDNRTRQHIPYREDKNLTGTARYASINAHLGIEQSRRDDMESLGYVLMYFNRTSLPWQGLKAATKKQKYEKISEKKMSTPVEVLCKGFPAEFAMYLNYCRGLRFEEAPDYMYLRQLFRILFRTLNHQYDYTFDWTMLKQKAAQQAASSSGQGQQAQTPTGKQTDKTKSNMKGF
GSPT1: Eukaryotic peptide chain release factor GTP-binding subunit ERF3A (GSPT1, Homo sapiens, UniProt P15170)
Chain of UniProt P15170 (whole entry, looked up): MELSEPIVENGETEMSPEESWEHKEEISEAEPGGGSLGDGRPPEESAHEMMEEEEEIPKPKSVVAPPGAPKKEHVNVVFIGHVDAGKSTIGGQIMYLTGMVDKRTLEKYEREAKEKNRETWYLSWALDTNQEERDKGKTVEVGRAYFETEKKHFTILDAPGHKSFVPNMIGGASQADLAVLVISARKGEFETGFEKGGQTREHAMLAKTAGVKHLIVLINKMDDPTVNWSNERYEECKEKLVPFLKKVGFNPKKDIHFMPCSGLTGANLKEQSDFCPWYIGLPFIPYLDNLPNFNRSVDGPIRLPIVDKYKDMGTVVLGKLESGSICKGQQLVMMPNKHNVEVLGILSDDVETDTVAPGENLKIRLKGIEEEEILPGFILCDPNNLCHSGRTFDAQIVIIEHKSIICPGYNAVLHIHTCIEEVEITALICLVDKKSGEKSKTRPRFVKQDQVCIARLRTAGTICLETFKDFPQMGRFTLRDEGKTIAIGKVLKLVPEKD
SALL4: Sal-like protein 4 (SALL4, Homo sapiens, UniProt Q9UJQ4)
Chain of UniProt Q9UJQ4 (whole entry, looked up): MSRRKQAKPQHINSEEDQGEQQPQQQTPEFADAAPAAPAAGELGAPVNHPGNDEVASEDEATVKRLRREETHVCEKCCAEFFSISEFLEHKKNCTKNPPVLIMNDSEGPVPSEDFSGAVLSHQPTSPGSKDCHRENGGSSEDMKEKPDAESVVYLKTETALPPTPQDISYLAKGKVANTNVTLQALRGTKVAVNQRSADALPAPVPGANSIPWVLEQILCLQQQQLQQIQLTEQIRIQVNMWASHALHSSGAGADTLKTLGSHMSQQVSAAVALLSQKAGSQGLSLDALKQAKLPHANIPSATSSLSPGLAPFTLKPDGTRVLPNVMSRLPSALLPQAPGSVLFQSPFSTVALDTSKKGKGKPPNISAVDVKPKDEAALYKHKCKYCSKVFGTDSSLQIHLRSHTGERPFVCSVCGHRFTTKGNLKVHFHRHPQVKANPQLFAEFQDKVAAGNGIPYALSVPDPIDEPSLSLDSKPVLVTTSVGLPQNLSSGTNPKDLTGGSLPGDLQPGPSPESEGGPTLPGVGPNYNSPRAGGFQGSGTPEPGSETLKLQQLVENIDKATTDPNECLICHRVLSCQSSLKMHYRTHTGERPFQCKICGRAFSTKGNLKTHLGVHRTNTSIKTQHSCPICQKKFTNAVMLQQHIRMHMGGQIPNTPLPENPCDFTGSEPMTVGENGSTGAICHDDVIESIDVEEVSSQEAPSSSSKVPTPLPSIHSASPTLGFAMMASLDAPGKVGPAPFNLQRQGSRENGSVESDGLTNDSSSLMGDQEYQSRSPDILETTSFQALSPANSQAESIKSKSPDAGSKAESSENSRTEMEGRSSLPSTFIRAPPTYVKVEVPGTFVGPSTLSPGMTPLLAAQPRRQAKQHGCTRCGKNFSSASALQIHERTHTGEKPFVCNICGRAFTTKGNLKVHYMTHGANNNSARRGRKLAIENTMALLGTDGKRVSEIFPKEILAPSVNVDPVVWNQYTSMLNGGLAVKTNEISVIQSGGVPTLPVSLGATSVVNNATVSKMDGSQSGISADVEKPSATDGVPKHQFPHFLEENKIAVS
CRBN/Zinc finger protein Helios: CRBN/Zinc finger protein Helios (Homo sapiens, UniProt Q96SW2+Q9UKS7)
Chain of UniProt Q9UKS7 (whole entry, looked up): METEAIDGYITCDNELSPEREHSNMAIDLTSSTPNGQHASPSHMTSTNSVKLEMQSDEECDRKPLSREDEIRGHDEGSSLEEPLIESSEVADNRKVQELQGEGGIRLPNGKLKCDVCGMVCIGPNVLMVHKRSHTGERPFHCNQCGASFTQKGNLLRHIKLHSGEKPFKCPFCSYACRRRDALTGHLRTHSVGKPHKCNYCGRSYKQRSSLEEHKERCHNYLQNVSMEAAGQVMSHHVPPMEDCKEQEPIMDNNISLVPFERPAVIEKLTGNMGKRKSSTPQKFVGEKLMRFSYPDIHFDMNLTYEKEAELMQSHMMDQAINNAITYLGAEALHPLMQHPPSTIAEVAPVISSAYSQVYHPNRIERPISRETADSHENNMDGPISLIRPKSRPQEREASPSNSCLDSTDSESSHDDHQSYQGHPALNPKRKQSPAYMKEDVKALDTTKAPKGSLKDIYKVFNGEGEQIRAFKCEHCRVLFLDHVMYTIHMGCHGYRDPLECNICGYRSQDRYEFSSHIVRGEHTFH
Chain of UniProt Q96SW2 (whole entry, looked up): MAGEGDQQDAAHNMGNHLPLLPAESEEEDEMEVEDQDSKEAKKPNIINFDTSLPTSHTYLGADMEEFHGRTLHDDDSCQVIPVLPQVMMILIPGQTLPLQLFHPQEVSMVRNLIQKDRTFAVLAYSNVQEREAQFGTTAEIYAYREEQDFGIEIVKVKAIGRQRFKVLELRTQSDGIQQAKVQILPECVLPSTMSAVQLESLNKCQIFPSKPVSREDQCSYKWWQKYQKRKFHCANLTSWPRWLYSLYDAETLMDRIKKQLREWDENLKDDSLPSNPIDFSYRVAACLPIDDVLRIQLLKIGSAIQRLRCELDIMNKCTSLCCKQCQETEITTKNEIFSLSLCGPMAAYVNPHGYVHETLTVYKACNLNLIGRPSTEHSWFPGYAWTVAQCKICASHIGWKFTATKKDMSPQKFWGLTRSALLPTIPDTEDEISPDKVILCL
Zinc finger protein Aiolos; HiBiT; HEK293; 0.0001694 µM, 6 h: 98.6%
CSNK1A1; HiBiT; HEK293 HiBiT-CK1α; 1111.11 nM: 85.4% and 94.1%
Zinc finger protein Aiolos; HiBiT; HEK293; 0.0001694 µM: 98.9% and 98.6%
Zinc finger protein Aiolos; HiBiT; HEK293; 0.0005081 µM, 6 h: 87.9%
GSPT1; HiBiT; HEK293; 10 µM: 116% and 109%
DNA-binding protein Ikaros (Homo sapiens, UniProt Q13422); HiBiT; HEK293; 0.0001694 µM, 6 h: 94.1%
Zinc finger protein Aiolos; HiBiT; HEK293; 0.0005081 µM: 87.9% and 92.3%
SALL4; HiBiT; HEK293; 0.1235 µM: 48.4% and 56.5%
CRBN/Zinc finger protein Helios; flow cytometry; primary human regulatory T cells; 0.01235 µM, 3 h: 107%
GSPT1; HiBiT; HEK293; 0.0005081 µM, 6 h: 108%
SALL4; HiBiT; HEK293; 3.333 µM, 6 h: 46.1%
CRBN/Zinc finger protein Helios; flow cytometry; primary human regulatory T cells; 0.1111 µM, 6 h: 62.7%
CSNK1A1; HiBiT; HEK293 HiBiT-CK1α; 0.1694 nM: 95.1% and 107%
CRBN/Zinc finger protein Helios; flow cytometry; primary human regulatory T cells; 0.004115 µM, 3 h: 101%

Excerpt of the above (block 4):
GSPT1; HiBiT; HEK293; 10 µM: 116% and 109%
DNA-binding protein Ikaros (Homo sapiens, UniProt Q13422); HiBiT; HEK293; 0.0001694 µM, 6 h: 94.1%
Zinc finger protein Aiolos; HiBiT; HEK293; 0.0005081 µM: 87.9% and 92.3%
SALL4; HiBiT; HEK293; 0.1235 µM: 48.4% and 56.5%
CRBN/Zinc finger protein Helios; flow cytometry; primary human regulatory T cells; 0.01235 µM, 3 h: 107%
GSPT1; HiBiT; HEK293; 0.0005081 µM, 6 h: 108%
SALL4; HiBiT; HEK293; 3.333 µM, 6 h: 46.1%
CRBN/Zinc finger protein Helios; flow cytometry; primary human regulatory T cells; 0.1111 µM, 6 h: 62.7%
